# Measured values gathered from unrelated publications.
# A part holds a random share of what one study measured.
# Chain of UniProt O14578 (whole entry, looked up): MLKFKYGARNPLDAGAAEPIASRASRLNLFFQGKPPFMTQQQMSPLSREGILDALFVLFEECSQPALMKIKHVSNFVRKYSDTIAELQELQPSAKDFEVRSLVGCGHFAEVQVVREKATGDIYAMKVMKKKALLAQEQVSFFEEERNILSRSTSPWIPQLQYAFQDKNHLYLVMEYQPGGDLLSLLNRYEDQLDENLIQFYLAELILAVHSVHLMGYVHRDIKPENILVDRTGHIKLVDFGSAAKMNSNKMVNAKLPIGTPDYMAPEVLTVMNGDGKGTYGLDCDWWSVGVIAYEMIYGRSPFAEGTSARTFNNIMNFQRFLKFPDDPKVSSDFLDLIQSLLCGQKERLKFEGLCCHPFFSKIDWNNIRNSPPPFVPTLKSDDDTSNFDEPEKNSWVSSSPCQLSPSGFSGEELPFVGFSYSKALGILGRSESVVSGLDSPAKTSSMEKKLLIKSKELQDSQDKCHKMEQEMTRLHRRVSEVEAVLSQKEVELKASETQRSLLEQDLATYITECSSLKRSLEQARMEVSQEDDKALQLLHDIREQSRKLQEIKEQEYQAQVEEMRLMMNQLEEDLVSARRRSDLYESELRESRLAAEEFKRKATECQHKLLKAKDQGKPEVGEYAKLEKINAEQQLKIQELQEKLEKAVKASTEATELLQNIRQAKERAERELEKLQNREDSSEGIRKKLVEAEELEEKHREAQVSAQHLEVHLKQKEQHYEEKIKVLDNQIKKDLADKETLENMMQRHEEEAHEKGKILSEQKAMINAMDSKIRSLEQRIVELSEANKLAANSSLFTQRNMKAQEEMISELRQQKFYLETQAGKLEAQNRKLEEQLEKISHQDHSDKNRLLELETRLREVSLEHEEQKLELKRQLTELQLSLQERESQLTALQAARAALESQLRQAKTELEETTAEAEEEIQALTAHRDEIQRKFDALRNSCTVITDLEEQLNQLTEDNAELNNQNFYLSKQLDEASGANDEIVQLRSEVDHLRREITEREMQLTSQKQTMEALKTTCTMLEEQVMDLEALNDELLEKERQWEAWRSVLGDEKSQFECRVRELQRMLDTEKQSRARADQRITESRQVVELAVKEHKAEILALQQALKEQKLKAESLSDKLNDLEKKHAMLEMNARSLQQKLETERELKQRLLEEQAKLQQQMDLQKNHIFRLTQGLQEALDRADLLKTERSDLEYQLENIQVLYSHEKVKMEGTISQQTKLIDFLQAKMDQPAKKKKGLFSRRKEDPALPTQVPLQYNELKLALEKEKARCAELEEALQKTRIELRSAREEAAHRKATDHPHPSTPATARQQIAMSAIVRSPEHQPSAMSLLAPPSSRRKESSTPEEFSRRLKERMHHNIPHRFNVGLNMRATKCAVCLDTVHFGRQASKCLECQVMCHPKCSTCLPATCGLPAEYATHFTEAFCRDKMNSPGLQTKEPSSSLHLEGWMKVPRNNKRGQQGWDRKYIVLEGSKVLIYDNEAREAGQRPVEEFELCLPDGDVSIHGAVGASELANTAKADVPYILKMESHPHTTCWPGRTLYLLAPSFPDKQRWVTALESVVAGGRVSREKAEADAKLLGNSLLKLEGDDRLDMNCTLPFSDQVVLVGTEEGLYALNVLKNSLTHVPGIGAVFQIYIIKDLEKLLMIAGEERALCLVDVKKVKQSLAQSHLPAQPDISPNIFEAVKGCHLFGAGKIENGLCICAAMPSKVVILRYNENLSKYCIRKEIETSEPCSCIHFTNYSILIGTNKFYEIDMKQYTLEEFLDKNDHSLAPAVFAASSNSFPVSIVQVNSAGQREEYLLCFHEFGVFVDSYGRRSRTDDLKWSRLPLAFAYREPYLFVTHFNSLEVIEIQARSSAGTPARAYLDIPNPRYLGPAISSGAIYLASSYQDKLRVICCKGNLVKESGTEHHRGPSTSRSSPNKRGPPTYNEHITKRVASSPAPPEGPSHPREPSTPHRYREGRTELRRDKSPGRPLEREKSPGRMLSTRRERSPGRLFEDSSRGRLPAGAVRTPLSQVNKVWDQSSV
# Chain of UniProt Q9NRM7 (whole entry, looked up): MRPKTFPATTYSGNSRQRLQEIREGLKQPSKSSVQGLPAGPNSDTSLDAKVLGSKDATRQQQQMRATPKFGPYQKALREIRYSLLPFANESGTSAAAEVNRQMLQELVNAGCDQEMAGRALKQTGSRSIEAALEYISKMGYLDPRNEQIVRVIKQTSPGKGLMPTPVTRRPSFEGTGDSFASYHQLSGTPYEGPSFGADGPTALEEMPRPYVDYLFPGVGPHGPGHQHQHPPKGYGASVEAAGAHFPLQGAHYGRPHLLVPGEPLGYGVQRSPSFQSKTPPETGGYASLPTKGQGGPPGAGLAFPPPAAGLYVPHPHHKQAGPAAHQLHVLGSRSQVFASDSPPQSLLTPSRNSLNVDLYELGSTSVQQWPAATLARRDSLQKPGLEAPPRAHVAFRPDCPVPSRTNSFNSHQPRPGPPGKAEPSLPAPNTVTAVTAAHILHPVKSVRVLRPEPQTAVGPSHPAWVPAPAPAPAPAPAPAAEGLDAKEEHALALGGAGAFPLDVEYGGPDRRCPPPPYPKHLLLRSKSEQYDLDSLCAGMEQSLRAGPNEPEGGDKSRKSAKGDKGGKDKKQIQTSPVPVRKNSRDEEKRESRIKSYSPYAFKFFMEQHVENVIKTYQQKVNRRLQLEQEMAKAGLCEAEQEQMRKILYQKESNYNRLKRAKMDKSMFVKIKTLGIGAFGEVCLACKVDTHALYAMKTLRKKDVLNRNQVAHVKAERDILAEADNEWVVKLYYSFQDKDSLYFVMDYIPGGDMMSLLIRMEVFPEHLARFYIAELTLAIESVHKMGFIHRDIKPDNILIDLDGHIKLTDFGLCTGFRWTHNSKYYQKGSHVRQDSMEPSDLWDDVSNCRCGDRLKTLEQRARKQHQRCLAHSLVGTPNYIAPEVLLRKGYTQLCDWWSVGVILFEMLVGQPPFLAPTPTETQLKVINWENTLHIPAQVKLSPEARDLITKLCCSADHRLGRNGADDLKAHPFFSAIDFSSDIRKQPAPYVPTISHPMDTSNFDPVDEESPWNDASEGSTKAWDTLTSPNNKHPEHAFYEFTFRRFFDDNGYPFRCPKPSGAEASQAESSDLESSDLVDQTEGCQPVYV
# Chain of UniProt Q02763 (whole entry, looked up): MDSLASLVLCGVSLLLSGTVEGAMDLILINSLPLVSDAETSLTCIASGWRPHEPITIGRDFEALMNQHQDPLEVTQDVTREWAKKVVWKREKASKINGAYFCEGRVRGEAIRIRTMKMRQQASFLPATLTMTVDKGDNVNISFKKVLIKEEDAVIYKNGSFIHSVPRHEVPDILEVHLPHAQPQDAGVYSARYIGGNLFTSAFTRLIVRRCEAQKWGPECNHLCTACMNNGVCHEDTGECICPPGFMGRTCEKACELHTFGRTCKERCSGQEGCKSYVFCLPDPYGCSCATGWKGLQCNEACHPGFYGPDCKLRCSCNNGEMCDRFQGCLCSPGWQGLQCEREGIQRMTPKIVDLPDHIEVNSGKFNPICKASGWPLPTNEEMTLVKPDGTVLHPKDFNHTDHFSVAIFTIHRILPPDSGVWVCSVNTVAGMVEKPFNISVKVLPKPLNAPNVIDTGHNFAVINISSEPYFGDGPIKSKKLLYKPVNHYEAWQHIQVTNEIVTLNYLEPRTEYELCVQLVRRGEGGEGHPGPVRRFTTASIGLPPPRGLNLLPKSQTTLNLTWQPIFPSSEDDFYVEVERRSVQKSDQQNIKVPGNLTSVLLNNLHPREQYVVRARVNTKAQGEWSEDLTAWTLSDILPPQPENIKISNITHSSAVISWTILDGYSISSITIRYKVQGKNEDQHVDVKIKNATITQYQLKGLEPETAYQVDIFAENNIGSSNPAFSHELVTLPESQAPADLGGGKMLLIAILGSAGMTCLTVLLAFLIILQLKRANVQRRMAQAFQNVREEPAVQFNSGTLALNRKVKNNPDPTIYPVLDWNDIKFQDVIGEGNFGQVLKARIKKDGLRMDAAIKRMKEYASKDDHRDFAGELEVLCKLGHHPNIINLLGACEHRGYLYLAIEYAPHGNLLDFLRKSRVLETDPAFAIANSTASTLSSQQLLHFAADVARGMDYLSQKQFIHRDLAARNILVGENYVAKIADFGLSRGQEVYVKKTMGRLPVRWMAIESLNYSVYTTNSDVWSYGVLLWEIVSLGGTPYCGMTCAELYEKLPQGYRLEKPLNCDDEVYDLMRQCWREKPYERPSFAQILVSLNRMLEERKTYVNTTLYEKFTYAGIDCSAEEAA
# Chain of UniProt Q15349 (whole entry, looked up): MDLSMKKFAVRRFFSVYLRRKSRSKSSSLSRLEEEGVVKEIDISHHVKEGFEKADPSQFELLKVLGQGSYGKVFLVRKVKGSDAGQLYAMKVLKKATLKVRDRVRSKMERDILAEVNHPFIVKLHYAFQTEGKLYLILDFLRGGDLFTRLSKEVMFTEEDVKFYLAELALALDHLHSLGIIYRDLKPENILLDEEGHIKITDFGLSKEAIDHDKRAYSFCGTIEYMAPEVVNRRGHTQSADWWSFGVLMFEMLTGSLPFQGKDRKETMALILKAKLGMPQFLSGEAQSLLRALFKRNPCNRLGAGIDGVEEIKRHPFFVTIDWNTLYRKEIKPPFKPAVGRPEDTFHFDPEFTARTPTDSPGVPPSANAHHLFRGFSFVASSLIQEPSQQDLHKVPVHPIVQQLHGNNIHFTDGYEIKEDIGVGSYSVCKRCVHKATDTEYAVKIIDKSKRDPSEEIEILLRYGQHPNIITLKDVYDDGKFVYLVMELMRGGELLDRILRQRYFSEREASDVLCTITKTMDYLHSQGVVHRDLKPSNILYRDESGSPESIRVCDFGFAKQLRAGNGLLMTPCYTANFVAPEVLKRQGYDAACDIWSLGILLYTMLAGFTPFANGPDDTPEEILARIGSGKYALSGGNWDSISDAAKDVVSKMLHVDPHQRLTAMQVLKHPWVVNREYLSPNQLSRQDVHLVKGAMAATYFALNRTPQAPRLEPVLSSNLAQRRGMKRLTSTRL

# Series 1 — observed: cell-free assay; technique: competition with immobilised ligand; tested at: 1 µM
# SMILES: CO[C@H]1CC[C@H](CNc2ccc(S(=O)(=O)NC(=O)c3ccc(N4CCN(CC5=C(c6ccc(Cl)cc6)CC(C)(C)CC5)CC4)cc3Oc3cnc4[nH]ccc4c3)cc2[N+](=O)[O-])CC1
target,remaining binding
"ERBB3 (Homo sapiens, UniProt P21860)",100%
"EGFR (Homo sapiens, UniProt P00533, L861Q)",70%
"LATS2 (Homo sapiens, UniProt Q9NRM7)",100%
"MAP2K7 (Homo sapiens, UniProt O14733)",100%
"CIT (Homo sapiens, UniProt O14578)",74%
"PIK3C2B (Homo sapiens, UniProt O00750)",92%

# Series 2 — organism: Sarcocystis neurona; observed: parasite growth; tested at: 10 µM; time: 96 h; setting: secondary screen
SMILES,inhibition
Cc1occc(=O)c1O,-23%
CNC(=C[N+](=O)[O-])NCCSCc1ccc(CN(C)C)o1,-12.3%
NCC(=O)CCC(=O)O,-12.3%
COc1cc(C)nc(-n2nc(C)cc2OC)n1,-6.5%
COc1ccc2c(c1)c(CC(=O)O)c(C)n2C(=O)c1ccc(Cl)cc1,5.3%
Nc1nc(Cl)nc2c1ncn2[C@H]1C[C@H](O)[C@@H](CO)O1,-20.7%
CC1COc2c(N3CCN(C)CC3)c(F)cc3c(=O)c(C(=O)O)cn1c23 (centres unmarked),-27.7%
NS(=O)(=O)Cc1noc2ccccc12,-9.7%
CN(C)CCOC(C)(c1ccccc1)c1ccccn1 (centres unmarked),-24%

# Series 3 — Structure (SMILES): N#C/C(=C\c1ccc(O)c(O)c1)C(=O)NCc1ccccc1; observed: enzyme activity; action: inhibitor; tested at: 0.5 µM; relative to: control
target,remaining activity [%]
"MAP2K2 (Homo sapiens, UniProt P36507)",105
"FRK (Homo sapiens, UniProt P42685)",97.4
"GRK7 (Homo sapiens, UniProt Q8WTQ7)",103
"MAP3K14 (Homo sapiens, UniProt Q99558)",109
"RPS6KA2 (Homo sapiens, UniProt Q15349)",94.2
"LCK (Homo sapiens, UniProt P06239)",95.7
"ULK2 (Homo sapiens, UniProt Q8IYT8)",106
"TEK (Homo sapiens, UniProt Q02763)",95.1
"ARAF (Homo sapiens, UniProt P10398)",95.2
"EPHA3 (Homo sapiens, UniProt P29320)",97.2
"MST1R (Homo sapiens, UniProt Q04912)",102
"CSNK1G3 (Homo sapiens, UniProt Q9Y6M4)",104
"MAP3K5 (Homo sapiens, UniProt Q99683)",104
"ULK3 (Homo sapiens, UniProt Q6PHR2)",71.2

# Series 4 — cell line: mouse MPNST tumor cells; technique: high-content nuclear imaging; measured: cell number; tested at: 10 µM; time: 12 h; setting: mean of 2 replicates; relative to: plate mean; reading: higher = more cells
SMILES,nuclei count [z-score]
O=C(NCCCCN1CCOCC1)c1cc2ccccc2o1,-0.0551
FC(F)(F)c1ccc(/C=C/c2nc(COc3ccc(CCCCn4ccnn4)cc3)co2)cc1,0.114
CCN1CCC[C@H]1CNC(=O)c1cc(S(N)(=O)=O)ccc1OC,0.783
Cc1[nH]c(/C=C2\C(=O)Nc3ccc(S(=O)(=O)N(C)c4cccc(Cl)c4)cc32)c(C)c1C(=O)N1CCN(C)CC1,0.409
Nc1nc(OCc2cc(Br)cs2)c2[nH]cnc2n1,1.51
Cc1ccccc1NC(=O)Nc1ccc(CC(=O)N(C)[C@@H](CC(C)C)C(=O)NCC[C@H](NC(=O)[C@@H]2CCCN2S(=O)(=O)c2cc(Cl)cc(Cl)c2)C(=O)O)cc1,0.724

# Excerpt of the above (series 4):
SMILES,nuclei count [z-score]
O=C(NCCCCN1CCOCC1)c1cc2ccccc2o1,-0.0551
FC(F)(F)c1ccc(/C=C/c2nc(COc3ccc(CCCCn4ccnn4)cc3)co2)cc1,0.114
CCN1CCC[C@H]1CNC(=O)c1cc(S(N)(=O)=O)ccc1OC,0.783
Cc1[nH]c(/C=C2\C(=O)Nc3ccc(S(=O)(=O)N(C)c4cccc(Cl)c4)cc32)c(C)c1C(=O)N1CCN(C)CC1,0.409
